Results pooled from the literature.
Numbered parts are unrelated; each lists some results of a single study. Several values in a cell are separate wells, animals, samples, runs or records.
UniProt Q9Y6E0, sequence (whole entry, looked up): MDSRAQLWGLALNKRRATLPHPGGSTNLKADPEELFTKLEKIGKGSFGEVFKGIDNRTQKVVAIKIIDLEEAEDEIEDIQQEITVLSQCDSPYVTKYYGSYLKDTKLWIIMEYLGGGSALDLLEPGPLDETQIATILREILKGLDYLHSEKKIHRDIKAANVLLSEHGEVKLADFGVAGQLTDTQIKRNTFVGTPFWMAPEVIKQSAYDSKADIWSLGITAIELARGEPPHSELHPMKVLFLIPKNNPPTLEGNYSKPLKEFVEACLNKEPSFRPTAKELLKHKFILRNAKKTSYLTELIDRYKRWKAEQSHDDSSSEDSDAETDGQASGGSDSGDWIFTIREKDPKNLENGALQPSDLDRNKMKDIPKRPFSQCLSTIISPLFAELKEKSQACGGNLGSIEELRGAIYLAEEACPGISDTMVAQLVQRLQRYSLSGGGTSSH
UniProt P07949, sequence (whole entry, unmodified, looked up): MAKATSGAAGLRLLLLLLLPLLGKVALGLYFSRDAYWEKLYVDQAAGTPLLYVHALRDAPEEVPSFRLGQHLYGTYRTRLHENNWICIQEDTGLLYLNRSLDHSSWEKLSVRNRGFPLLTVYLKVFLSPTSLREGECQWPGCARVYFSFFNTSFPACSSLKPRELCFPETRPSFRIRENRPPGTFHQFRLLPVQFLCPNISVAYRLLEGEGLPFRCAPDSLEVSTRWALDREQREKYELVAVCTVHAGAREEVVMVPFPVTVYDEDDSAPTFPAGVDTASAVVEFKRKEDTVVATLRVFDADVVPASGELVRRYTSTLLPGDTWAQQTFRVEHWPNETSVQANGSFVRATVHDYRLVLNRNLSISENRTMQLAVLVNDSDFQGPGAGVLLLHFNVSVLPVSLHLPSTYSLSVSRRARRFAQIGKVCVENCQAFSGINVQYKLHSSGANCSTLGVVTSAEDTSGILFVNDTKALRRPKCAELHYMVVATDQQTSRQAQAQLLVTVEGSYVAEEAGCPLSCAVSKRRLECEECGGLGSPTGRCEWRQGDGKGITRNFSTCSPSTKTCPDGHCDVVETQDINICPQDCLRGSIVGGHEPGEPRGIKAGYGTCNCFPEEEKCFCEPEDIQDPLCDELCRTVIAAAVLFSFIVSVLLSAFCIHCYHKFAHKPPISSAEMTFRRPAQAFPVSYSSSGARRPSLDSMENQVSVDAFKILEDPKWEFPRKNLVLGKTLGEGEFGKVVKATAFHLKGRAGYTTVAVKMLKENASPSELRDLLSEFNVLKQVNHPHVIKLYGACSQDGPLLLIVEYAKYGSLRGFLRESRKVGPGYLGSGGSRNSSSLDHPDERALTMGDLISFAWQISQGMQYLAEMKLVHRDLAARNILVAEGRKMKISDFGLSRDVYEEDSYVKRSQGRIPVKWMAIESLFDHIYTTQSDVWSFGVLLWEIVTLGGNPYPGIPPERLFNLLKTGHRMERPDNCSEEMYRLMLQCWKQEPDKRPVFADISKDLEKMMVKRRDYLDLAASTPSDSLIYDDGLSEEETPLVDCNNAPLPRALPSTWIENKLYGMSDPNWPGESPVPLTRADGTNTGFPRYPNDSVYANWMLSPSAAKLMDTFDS
UniProt Q13153, sequence (whole entry, looked up): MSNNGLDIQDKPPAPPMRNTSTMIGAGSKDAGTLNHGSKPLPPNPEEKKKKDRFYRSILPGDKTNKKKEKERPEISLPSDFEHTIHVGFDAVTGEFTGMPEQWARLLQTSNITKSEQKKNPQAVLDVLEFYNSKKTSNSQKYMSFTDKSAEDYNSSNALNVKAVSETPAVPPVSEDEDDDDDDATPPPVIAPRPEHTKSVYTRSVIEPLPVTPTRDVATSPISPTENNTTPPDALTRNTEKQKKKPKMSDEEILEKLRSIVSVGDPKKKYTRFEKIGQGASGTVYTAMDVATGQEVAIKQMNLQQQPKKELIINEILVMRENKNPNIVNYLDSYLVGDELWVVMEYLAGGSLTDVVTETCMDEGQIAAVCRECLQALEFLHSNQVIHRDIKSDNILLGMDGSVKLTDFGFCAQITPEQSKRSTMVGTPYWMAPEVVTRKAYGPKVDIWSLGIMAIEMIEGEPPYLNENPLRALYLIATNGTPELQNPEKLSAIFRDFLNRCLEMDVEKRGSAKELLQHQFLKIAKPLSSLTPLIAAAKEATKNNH
UniProt O14965, sequence (whole entry, looked up): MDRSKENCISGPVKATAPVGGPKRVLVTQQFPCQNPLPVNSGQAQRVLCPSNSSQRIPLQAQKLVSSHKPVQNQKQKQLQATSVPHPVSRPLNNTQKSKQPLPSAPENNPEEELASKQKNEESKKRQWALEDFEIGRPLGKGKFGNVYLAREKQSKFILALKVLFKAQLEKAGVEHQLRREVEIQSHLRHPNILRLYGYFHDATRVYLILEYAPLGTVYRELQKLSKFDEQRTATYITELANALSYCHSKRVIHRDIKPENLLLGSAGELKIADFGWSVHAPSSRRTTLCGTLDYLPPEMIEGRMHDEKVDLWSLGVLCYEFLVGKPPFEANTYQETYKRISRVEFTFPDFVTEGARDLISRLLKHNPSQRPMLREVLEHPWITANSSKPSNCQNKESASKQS
UniProt Q16513, sequence (whole entry, looked up): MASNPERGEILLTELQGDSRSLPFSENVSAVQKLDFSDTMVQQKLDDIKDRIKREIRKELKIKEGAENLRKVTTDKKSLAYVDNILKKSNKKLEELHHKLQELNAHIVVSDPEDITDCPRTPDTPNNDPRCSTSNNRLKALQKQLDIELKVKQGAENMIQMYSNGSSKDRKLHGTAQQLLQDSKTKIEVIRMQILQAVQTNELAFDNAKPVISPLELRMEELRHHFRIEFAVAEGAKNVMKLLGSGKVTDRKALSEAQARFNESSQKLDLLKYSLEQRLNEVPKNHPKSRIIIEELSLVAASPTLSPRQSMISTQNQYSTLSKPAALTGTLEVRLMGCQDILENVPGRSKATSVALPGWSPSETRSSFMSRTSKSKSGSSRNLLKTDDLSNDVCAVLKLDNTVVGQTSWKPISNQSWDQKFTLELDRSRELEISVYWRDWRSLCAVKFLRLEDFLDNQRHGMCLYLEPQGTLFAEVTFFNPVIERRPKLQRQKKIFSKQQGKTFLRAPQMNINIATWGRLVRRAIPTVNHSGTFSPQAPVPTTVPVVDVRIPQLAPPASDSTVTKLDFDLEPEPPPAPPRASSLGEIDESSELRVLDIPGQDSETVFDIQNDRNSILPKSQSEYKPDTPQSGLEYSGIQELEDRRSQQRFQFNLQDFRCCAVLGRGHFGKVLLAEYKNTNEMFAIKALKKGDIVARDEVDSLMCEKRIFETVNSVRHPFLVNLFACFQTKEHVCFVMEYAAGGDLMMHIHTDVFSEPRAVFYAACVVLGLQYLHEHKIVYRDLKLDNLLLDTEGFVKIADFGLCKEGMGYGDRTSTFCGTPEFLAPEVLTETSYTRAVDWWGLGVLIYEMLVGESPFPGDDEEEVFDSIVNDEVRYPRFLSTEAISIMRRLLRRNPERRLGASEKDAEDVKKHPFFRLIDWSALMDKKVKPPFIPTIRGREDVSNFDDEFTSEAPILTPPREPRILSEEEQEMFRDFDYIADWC
UniProt P49760, sequence (whole entry, looked up): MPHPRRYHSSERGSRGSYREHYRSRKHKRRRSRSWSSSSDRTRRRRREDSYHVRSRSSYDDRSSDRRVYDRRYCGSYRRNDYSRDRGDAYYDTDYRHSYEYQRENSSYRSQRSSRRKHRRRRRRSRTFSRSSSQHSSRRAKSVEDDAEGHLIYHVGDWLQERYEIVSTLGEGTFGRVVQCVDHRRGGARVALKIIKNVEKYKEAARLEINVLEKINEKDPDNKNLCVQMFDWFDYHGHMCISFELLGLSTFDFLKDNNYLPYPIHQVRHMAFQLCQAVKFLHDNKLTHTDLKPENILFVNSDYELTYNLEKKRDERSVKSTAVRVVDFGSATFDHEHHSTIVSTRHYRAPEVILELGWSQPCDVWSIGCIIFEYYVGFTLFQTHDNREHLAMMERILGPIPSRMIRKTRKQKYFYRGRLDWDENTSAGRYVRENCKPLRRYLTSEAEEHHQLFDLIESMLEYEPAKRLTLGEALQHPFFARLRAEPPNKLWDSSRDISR
UniProt Q9UBE8, sequence (whole entry, looked up): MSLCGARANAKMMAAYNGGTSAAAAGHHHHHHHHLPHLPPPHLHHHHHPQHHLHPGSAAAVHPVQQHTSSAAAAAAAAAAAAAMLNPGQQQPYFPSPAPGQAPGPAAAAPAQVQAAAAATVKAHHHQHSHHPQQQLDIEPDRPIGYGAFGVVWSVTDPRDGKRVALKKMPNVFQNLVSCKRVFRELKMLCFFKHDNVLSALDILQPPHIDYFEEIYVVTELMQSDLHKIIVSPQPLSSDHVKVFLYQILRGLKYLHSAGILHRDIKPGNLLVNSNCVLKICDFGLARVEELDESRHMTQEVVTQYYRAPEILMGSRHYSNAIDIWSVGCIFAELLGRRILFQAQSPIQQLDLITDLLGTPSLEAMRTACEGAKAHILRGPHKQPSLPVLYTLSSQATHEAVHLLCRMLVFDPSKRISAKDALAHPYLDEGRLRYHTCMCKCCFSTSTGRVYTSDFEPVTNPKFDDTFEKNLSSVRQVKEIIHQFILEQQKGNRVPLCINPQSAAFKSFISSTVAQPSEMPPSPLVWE

Study 1
Cell line: mouse MPNST tumor cells
Technique: high-content nuclear imaging
Refers to: cell number
Tested at: 10 µM
Time: 12 h
Setting: mean of 2 replicates
Baseline: plate mean
Direction: higher = more cells
| SMILES | nuclei count |
| --- | --- |
| Cc1ccc([N+](=O)[O-])cc1S(=O)(=O)N(C)C | 1.42 z-score |
| CCCC1C(=O)N2C(N(C)C)=Nc3ccc(C)cc3N2C1=O (stereo not shown) | 1.15 z-score |
| CCC1(c2ccccc2)C(=O)NCNC1=O | 2.31 z-score and 2.27 z-score |
| O=C(OCCOCCO)c1ccccc1Nc1cccc(C(F)(F)F)c1 | 1.06 z-score |

Study 2
Cell line: HaCaT
Tested at: 100 µM
Time: 18 h
| SMILES | viability [%] |
| --- | --- |
| Cc1cccc(Nc2ccncc2S(=O)(=O)NC(=O)NC(C)C)c1 | 96.6 |
| CC(=O)SCC(Cc1ccccc1)C(=O)NCC(=O)OCc1ccccc1 (stereo not shown) | 111 |
| Clc1ccc(C(Cn2ccnc2)OCc2ccsc2Cl)c(Cl)c1 (stereo not shown) | 15.8 |
| CO[C@H]1C[C@@H]2CC[C@@H](C)[C@@](O)(O2)C(=O)C(=O)N2CCCC[C@H]2C(=O)O[C@H]([C@H](C)C[C@@H]2CC[C@@H](O)[C@H](OC)C2)CC(=O)[C@H](C)/C=C(\C)[C@@H](O)[C@@H](OC)C(=O)[C@H](C)C[C@H](C)/C=C/C=C/C=C/1C | 44.3 |
| CCC(Cc1c(I)cc(I)c(N)c1I)C(=O)O (stereo not shown) | 97.2 |

Study 3
Target: Calcium/calmodulin-dependent protein kinase type II subunit alpha (CAMK2A, Homo sapiens, UniProt Q9UQM7)
UniProt Q9UQM7, sequence (whole entry, looked up): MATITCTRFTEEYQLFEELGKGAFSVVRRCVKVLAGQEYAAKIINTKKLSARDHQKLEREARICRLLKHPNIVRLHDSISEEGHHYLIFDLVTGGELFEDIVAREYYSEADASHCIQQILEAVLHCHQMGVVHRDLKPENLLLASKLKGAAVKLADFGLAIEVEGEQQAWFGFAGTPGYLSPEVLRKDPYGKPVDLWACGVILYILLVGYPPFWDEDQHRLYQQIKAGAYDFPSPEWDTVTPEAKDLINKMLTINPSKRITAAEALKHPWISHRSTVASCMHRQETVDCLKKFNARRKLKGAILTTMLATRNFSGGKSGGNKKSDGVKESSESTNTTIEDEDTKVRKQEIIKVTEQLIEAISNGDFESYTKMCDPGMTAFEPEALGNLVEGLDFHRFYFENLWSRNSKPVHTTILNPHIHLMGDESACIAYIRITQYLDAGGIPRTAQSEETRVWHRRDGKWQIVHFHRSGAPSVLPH
Effect on: enzyme activity
Mode: inhibitor
Tested at: 10 µM
| Compound | inhibition [%] |
| --- | --- |
| C[C@H](O)C(=O)N[C@@H](Cc1ccccc1)C(=O)O | -30 |
| NCc1ccc(O)cc1 | -17 |
| CC(C)(C)CC(=O)OCC(=O)[C@@]1(O)CC[C@H]2[C@@H]3CCC4=CC(=O)C=C[C@]4(C)[C@H]3[C@@H](O)C[C@@]21C | -4 |
| NCCCCCC(=O)O | -16 |
| CCOc1ccc2ccc(=O)oc2c1 | -16 |

Study 4
SMILES: Cc1ccc(NC(=O)c2ccnc(C(F)(F)F)c2)cc1-c1cc(OCCO)nc(N2CCOCC2)c1
Tested at: 1 µM
| target | test | setting | scale | remaining binding [%] |
| --- | --- | --- | --- | --- |
| CDK13 (Homo sapiens, UniProt Q14004) | competitive binding panel, refers to: CDC2L5 | – | baseline: vehicle | 77 |
| PTK6 (Homo sapiens, UniProt Q13882) | competitive binding | BRK | – | 99 |
| PIK3CA (Homo sapiens, UniProt P42336, C420R) | competitive binding panel | – | baseline: vehicle | 94 |

Study 5
Organism: Plasmodium berghei
Mode: inhibitor
Cells: Huh-7
Strain: liver stage
Tested at: 10 µM
Time: 24 h
Baseline: untreated control
| Structure (SMILES) | infection rate [%] |
| --- | --- |
| NC(=O)CC[C@H](N)C(=O)O | 80.5 |
| C=CCc1ccc(O)c(OC)c1 | 128 |
| NNC(=O)c1ccncc1 | 123 |
| CC1CCc2cc(F)cc3c(=O)c(C(=O)O)cn1c23 (stereo not shown) | 110 |
| N[C@@H](Cc1cc(I)c(Oc2ccc(O)c(I)c2)c(I)c1)C(=O)O | 88.5 |

Study 6
Compound: Cc1nc(N2CC[C@@H](O)C2)ncc1-c1cc(C(F)(F)F)cc2[nH]ncc12
Tested at: 1 µM
| target | test | remaining binding [%] |
| --- | --- | --- |
| PKN2 (Homo sapiens, UniProt Q16513) | binding, competition with immobilised ligand | 72 |
| MAP3K1 (Homo sapiens, UniProt Q13233) | binding, competition with immobilised ligand | 60 |
| EPHB2 (Homo sapiens, UniProt P29323) | cell-free assay, competition with immobilised ligand | 100 |
| PAK1 (Homo sapiens, UniProt Q13153) | cell-free assay, competition with immobilised ligand | 100 |
| CLK2 (Homo sapiens, UniProt P49760) | binding, competition with immobilised ligand | 100 |
| HIPK4 (Homo sapiens, UniProt Q8NE63) | binding, competition with immobilised ligand | 82 |
| LRRK2 (Homo sapiens, UniProt Q5S007, G2019S) | binding, competition with immobilised ligand | 67 |
| Tyrosine-protein kinase JAK1, JH2 (JAK1, Homo sapiens, UniProt P23458) | binding, competition with immobilised ligand | 100 |
| NLK (Homo sapiens, UniProt Q9UBE8) | binding, competition with immobilised ligand | 100 |
| ACVR2A (Homo sapiens, UniProt P27037) | cell-free assay, competition with immobilised ligand | 73 |
| RET (Homo sapiens, UniProt P07949, M918T) | cell-free assay, competition with immobilised ligand | 100 |
| DCLK2 (Homo sapiens, UniProt Q8N568) | binding, competition with immobilised ligand | 100 |
| STK24 (Homo sapiens, UniProt Q9Y6E0) | binding, competition with immobilised ligand | 100 |
| SNRK (Homo sapiens, UniProt Q9NRH2) | binding, competition with immobilised ligand | 96 |
| MAPK14 (Homo sapiens, UniProt Q16539) | binding, competition with immobilised ligand | 100 |
| TAOK3 (Homo sapiens, UniProt Q9H2K8) | binding, competition with immobilised ligand | 82 |
| Aurora kinase A (AURKA, Homo sapiens, UniProt O14965) | cell-free assay, competition with immobilised ligand | 87 |
| Tyrosine-protein kinase ABL1, non-phosphorylated (ABL1, Homo sapiens, UniProt P00519, Q252H) | binding, competition with immobilised ligand | 91 |
| EGFR (Homo sapiens, UniProt P00533, A750P/del747-749) | cell-free assay, competition with immobilised ligand | 64 |
| SIK1 (Homo sapiens, UniProt P57059) | competition binding | 90 |
| TNK2 (Homo sapiens, UniProt Q07912) | binding, competition with immobilised ligand | 90 |
